Published values collected from several papers.
Numbered parts are unrelated; each lists some results of a single study.

Series 1 — technique: universal PBM; form: double-stranded DNA, one strand shown; medium: in vitro; concentration: not given; reading: higher = stronger binding; quantity: E-score
Target: Sal-like protein 4, full length isoform B (SALL4, Homo sapiens, UniProt Q9UJQ4-2, residues 1-616)
Notes: 8-mer, flanks averaged, mean of replicates
GACCCCCA: -0.289
ATGTTTGG: 0.207
ACATTGAG: 0.0665
GAGTTCTA: 0.0398
CTGGGTGA: -0.194
GAAATTTA: 0.324
CAGTACGC: 0.0204
ACGTCTTC: 0.0481
CGCGGATA: -0.00533
GAGATAGC: -0.159
CCGTATTA: 0.00461
GGGCTGGA: -0.223
AAACTATA: 0.263
GTAGCTTA: 0.143
GTCCCGTA: -0.0571
CCATCCTA: 0.0569
TACCCTCA: -0.061
AGTCGATC: -0.19
ATTTGCGA: 0.196
GGCGTCCA: -0.158
ACGTACAT: 0.201
GTCACCAC: -0.173
AGACGCAT: 0.0548
AGATTTTC: 0.127
GGTTGGCA: -0.0652

Series 2 — technique: RNA Bind-n-Seq; form: RNA; medium: in vitro; concentration: 365 nM; baseline: no-protein control; reading: higher = stronger binding; quantity: RBNS enrichment (R)
Target: RNA binding protein fox-1 homolog 2, RRM domain, GST-SBP tag (RBFOX2, Homo sapiens, UniProt O43251-10, residues 100-194)
Notes: natural RNA segment, single round, ends assumed
Target sequence (chain): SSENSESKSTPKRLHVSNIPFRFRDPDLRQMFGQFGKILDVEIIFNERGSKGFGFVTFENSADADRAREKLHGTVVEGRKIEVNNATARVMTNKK
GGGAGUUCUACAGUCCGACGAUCAUUUAAACGACUGGUCCAAAUUUUGCCUUCAGUUACAAGUCUGUGGCUCUCAUUUGCCUCCUCAGAAGAGUGGGACAGGGCUCCAUGGGAGACCCAGAGUUCAGGCUACAUGGAAUUCUCGGGUGCCAA: 0.274
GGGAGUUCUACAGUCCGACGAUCGAGCUCUUCUGUCCAAAGAUGGCUGCGGGCUAAGCAAGGUCCUGCCCUGGGUGGAUACUUGAACCAGAGAUCCCGACCCUGCUGCUCCAUCUCAGGAGGCAGCCUUCCUGUGGAAUUCUCGGGUGCCAA: 0.286
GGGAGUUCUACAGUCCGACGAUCUGAAGUUGUCAUGUCAUCCUUUUCUGUCUUCCACUCUCCUGGUCUAGAACCUUGUUGAUCAUGCUCAUAUUCUUCUUGAGGUUUGUUUUUGUUGUUGCGUAGUCUUUGUUUGGAAUUCUCGGGUGCCAA: 4.77
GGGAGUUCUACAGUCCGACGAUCAACCUUUCGCCUAUGGCUUACAGUUCGACAUUUAAUUUAUUAGCGCUGCUCUGCACCCCUCCUGCCGGGAGGCUCUGUGUGGUUAUUGCCAGUUCUUUGUUUACUUUUCAUGGAAUUCUCGGGUGCCAA: 0.301
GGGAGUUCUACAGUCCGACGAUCAUAAAAGAAAAAAAUAUGUGGUCUGUGAAAUCUAAAAUAUUUACUACCUGGCCUGUUGGAGGAAAGGUUUGCCAAUCUCUGUUUUAUACCAUUAACUAUGAGAUUAACAAUGGAAUUCUCGGGUGCCAA: 0.476
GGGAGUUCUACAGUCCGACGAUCCCUUGGGAGCCACAGGAUUUAACUGGAGCAGACAGGAAACCCUUGGGGAGCAGGCUCAGGCUUCCCCAGCCCCAUCCCAAGCCCUUCAGUGCCAAAAACAAAGAAAUGAAUGGAAUUCUCGGGUGCCAA: 0.286
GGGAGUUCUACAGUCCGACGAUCCCCUCCACAUCUGAGGUGGCUCAUUCCCAUCACACACAGAUUGUCCUGGUGUUCAUUUCAAGGCCAGUGUUCAGCAGCAGCGUUUGGAAAGCAGGUUCUGUGGGACCCCCUGGAAUUCUCGGGUGCCAA: 0.226
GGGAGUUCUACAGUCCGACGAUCGAAAACUCACUUCAAUGAACAAAGGGAUUCUCCAGGAUUCCAAAGUUUUGAAGUCAUCUUAGCUUUCCACAGGAGGGAGAGAACUUAAAAAAGCAACAGUAGCAGGGAAUUGGAAUUCUCGGGUGCCAA: 0.398
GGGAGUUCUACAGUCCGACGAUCCUCAACAGACAAUUAGAAAAAAGUCCACACUUGAAGCCUAAAUUUGUGCUUUUUAAGAAUAUUUUUAGACUAUUUCUUUUUAUAGGGGCUUUGCUGAAUUCUAACAUUAAUGGAAUUCUCGGGUGCCAA: 0.429
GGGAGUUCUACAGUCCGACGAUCACUCUGUGUCUCCUGCCUUGUUGUUCGGUAAUAAGACUGUAGCGUAUGUAAAGGAGGGAAGGGAAGGCUUAAAAAGUCAUGUUCUUGCACCCUUUUUAAAUCACAGAAAUUGGAAUUCUCGGGUGCCAA: 0.81
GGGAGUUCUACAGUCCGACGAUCAGUGUGUUAGCAUGGAACAGAACGCCUCUCACAAAACAAAGGACCGUUUUACAAAGGAUGAUCCGACAGUGUGUCGACAUAAACUUUUACAACUGCACAGCAGCCAAAAAUGGAAUUCUCGGGUGCCAA: 3.46
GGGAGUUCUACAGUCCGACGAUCAUUGCAUCAUCACUGACCUGUUAGAAUUUAACCCGGAAACAUCGCAAUAGCAUUUAGGGAUGCACGCACAGUGGUAAUUUAUUACUCAGUUCCGGUUAUGUUUUUCUCCAUGGAAUUCUCGGGUGCCAA: 0.522

Series 3 — technique: protein binding microarray; form: double-stranded DNA, one strand shown; medium: in vitro; concentration: not given; baseline: not given; reading: higher = stronger binding; quantity: E-score
Target: Histone acetyltransferase KAT6A, winged helix 2, GST fusion (KAT6A, Homo sapiens, UniProt Q92794, residues 85-181)
Notes: 8-mer, flanks averaged, mean of 2 arrays, mostly near background
Target sequence (chain): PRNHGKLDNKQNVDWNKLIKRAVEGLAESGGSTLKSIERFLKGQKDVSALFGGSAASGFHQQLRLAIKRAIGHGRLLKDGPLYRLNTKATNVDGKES
CCCGCTGA: -0.0539
GTCGTCTA: -0.16
CATTGTTC: -0.0423
CCCATTCA: -0.096
GAAACTCA: 0.0582
TAATATGA: -0.0504
AACAGCCT: -0.0724
GCTCGTCA: 0.114
ACTTAGAT: 0.0192
ATCTCCTG: 0.0725
AGAGAAGA: 0.0672
CCGTAACA: 0.0226
AAGTGGTG: -0.0704
ATGGTGTC: 0.0114
ACTTACAC: -0.157
CGGCTTGA: 0.117
GAATCCAC: -0.0561
GGTGATGA: -0.124
CCCAAGCC: 0.0392
ATAAGACC: -0.204
GATGACAA: -0.042
CCTTACAC: -0.124
CGGCTCAC: -0.0225
CTTCATGA: 0.0975
AGACGCGC: -0.0316

Series 4 — technique: competition protein-binding microarray; form: double-stranded DNA, one strand shown; medium: in vitro; concentration: 2 µM; together with: Pho4 competitor, 0.05 µM; reading: higher = stronger binding; quantity: fluorescence intensity
Target: Centromere-binding protein 1, full length, His-tagged (CBF1, Saccharomyces cerevisiae, UniProt P17106, residues 1-351)
Chain of UniProt P17106 (whole entry, looked up): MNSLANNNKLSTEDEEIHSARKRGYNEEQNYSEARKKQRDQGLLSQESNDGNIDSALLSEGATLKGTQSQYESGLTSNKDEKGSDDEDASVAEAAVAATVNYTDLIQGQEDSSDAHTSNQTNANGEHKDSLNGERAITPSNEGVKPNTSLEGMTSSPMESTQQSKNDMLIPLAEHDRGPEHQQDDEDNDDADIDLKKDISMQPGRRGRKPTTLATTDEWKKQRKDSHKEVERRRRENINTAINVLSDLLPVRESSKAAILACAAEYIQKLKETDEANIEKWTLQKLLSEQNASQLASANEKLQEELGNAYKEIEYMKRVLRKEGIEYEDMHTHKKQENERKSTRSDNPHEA
Notes: whole 60-bp probe, lowest competitor level
AAATTACTAAGTTTTCACGTGTGTTACCCCGTATGAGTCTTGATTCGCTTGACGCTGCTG: 609 a.u.
GTCTTGTCTCATTTTCACGTGCTGTTCCCCACTTCAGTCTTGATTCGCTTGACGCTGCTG: 988 a.u.
AAAGCGGTAATTTGGACGGTGGGTGCAGATATCTATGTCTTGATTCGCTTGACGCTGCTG: 73 a.u.
TGACAGATGCCATGGCGCTACTGTTGTAGTATTGTAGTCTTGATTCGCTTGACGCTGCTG: 82.6 a.u.
GTTATAAGTGCTTTTCTCGTGCAAATCCCTGACACTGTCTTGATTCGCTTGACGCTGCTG: 85.3 a.u.
TTTCTCTTTGAGGTTCACGTTCACTTCTGCTACCATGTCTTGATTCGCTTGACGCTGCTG: 77.4 a.u.
TCTGATAGTTCTACCATCGTGGGTAACAACGTATGGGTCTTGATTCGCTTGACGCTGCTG: 84.2 a.u.
CGTCCTAGTGATTGTCACTCCACTTCCATGAGGAAGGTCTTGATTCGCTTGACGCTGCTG: 91 a.u.
AAAGCGGTAATTTGTAATGTGGGTGCAGATATCTATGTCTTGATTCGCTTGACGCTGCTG: 77.2 a.u.
CATACCCAACCTTGTTATGTGGGTGAAGATATTTGTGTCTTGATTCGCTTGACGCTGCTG: 74.5 a.u.
CTGCATGGTACTGCTCATATGACAACTCCCACCCAGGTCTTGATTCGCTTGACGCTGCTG: 78.6 a.u.
CCGTAGAGGCTTTTGCCCGTGCTTTGAGACAACTGCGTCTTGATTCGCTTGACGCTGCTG: 70.8 a.u.
TTTCGTGTAGCATCGCACGTCAGACATGGATGCAACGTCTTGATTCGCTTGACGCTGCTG: 69.2 a.u.
TCTGACCCAGAATGGATACGTCCATACCGTAAGGACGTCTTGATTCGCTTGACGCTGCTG: 56.2 a.u.
TACGAAAGATGGAAACACATGCAGAGAATGTGGTCTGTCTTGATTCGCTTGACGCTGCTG: 119 a.u.
CGTCCTAGTGATTGGCCGGTGGGTGCCATGAGGAAGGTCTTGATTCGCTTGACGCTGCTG: 72.7 a.u.
CTCTTTGAATGCTGTCACCTGTTACTGTGAAGACCAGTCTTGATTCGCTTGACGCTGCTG: 238 a.u.
CGTCCTAGTGATTGGGTGGTGGGTGCCATGAGGAAGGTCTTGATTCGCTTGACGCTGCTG: 80.2 a.u.
